Measurements collected from several papers.
A part holds a random share of what one study measured. Values joined by “and” are separate records of one study, mostly repeats; a detail may differ.
Chain of UniProt P50750 (whole entry, looked up): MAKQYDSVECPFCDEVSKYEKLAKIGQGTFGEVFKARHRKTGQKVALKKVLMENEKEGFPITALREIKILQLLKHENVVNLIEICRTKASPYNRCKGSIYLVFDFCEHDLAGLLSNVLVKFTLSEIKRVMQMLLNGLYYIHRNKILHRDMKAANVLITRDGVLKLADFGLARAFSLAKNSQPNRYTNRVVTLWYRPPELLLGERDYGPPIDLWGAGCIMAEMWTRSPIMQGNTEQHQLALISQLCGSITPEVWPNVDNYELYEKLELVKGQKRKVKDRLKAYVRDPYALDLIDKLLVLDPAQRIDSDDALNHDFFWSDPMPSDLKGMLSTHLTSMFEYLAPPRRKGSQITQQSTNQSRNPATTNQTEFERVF
Chain of UniProt Q9UK32 (whole entry, looked up): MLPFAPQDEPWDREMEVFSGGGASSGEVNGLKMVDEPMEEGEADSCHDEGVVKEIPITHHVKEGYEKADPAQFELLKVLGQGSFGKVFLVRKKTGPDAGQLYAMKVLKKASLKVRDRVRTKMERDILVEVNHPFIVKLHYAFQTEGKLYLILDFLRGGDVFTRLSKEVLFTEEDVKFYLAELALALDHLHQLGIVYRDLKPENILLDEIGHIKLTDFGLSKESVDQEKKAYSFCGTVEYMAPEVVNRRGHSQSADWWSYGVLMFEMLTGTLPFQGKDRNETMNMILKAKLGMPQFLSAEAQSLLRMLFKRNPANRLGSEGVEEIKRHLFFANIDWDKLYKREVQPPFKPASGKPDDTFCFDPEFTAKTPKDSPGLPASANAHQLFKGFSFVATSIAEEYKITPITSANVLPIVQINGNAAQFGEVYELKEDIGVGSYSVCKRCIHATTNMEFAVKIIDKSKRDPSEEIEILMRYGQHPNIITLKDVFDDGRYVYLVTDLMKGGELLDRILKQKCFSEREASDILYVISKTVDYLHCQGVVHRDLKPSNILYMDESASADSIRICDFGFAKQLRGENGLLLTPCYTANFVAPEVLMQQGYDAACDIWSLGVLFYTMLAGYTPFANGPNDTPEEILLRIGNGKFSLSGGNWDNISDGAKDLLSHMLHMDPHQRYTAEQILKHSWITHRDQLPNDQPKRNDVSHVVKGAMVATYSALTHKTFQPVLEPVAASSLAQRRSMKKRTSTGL
Chain of UniProt Q15375 (whole entry, looked up): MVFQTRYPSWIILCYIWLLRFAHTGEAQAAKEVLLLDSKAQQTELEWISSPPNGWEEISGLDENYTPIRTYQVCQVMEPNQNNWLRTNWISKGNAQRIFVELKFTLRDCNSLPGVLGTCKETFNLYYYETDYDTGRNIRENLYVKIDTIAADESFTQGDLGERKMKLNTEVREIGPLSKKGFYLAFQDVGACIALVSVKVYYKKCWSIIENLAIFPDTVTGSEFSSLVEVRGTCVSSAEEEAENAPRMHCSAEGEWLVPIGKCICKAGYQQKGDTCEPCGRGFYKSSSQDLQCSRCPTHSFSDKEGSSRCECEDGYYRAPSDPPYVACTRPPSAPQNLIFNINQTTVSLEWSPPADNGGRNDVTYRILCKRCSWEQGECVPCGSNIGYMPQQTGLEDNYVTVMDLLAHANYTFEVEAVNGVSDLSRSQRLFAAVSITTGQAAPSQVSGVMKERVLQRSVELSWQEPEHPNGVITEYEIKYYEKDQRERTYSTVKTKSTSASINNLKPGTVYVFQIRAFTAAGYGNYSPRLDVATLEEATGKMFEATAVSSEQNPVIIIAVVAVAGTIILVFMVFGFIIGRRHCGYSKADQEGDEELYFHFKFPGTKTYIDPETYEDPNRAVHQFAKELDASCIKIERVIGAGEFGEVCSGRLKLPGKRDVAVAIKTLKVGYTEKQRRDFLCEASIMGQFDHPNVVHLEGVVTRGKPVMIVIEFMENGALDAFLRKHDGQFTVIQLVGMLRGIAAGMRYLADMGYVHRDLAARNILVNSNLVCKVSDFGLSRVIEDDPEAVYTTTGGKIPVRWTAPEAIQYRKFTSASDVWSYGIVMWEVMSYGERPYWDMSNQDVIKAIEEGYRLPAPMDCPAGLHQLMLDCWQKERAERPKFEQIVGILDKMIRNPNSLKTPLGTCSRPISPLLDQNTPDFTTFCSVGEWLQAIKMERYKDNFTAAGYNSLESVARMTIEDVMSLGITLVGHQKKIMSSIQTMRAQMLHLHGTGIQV
Chain of UniProt Q9BWU1 (whole entry, looked up): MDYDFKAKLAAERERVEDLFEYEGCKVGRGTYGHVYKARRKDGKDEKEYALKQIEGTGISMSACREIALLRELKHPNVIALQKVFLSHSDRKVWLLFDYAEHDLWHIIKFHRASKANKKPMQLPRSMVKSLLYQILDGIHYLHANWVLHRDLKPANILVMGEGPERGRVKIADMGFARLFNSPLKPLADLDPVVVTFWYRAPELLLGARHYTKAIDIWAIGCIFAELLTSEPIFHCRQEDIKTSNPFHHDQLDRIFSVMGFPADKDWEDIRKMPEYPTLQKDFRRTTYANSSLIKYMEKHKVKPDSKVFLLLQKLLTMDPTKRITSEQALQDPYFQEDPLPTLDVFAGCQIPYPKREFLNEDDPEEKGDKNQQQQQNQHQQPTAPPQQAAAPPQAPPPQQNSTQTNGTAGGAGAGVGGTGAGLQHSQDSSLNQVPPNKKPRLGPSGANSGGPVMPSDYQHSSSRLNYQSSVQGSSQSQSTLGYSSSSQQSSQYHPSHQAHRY
Chain of UniProt Q14289 (whole entry, looked up): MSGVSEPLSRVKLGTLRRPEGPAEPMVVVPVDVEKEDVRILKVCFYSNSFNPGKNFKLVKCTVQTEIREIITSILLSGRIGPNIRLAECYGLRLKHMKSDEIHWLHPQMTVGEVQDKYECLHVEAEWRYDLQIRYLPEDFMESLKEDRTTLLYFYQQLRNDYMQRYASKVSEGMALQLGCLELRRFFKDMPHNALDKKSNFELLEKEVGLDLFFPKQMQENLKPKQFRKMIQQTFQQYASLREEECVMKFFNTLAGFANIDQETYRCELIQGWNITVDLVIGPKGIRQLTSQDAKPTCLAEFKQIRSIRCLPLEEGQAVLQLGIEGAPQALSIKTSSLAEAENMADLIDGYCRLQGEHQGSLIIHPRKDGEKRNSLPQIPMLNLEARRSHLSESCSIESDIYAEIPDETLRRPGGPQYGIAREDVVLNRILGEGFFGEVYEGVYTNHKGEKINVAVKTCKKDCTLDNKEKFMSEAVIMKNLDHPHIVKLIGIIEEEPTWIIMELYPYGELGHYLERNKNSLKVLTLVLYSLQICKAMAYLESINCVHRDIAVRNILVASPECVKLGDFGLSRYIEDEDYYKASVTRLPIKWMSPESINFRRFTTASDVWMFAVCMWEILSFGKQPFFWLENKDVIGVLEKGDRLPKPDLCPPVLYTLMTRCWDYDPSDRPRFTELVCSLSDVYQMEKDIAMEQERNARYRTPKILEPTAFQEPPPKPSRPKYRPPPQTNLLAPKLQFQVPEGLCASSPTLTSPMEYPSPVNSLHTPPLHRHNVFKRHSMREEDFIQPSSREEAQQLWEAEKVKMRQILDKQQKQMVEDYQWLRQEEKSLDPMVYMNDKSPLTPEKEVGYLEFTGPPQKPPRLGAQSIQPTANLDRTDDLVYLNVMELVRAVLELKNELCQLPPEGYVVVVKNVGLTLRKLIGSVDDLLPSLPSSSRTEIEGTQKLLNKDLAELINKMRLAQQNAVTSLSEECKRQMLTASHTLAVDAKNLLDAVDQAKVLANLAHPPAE
Chain of UniProt O00238 (whole entry, looked up): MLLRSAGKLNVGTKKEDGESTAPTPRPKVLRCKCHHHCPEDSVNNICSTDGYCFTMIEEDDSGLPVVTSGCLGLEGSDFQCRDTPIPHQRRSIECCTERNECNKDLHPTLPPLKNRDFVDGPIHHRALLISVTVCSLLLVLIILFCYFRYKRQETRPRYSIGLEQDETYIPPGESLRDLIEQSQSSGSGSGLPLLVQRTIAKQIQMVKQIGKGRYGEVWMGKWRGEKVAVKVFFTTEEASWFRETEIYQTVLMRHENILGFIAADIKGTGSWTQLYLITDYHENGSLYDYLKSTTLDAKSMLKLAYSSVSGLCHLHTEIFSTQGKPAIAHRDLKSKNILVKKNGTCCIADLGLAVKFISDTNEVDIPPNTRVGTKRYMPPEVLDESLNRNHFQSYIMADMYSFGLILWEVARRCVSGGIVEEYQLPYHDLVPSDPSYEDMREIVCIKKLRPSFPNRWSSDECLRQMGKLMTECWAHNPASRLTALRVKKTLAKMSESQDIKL

Sample 1 — cell line: mouse MPNST tumor cells; method: high-content nuclear imaging; measured: cell number; concentration: 10 µM; time: 12 h; notes: mean of 2 replicates; reference: plate mean; direction: higher = more cells
| SMILES | nuclei count |
| --- | --- |
| COc1ccccc1CC(=N)N1C[C@@H]2C(=O)CCC(c3ccccc3)(c3ccccc3)[C@@H]2C1 | 2.25 z-score |
| O[C@@H](COc1cccc2ncccc12)CN1CCN([C@@H]2c3ccccc3[C@@H]3[C@H](c4ccccc42)C3(F)F)CC1 | -4.14 z-score |
| Cc1cc(C2CCCCC2)n(O)c(=O)c1 | -3.77 z-score and -1.48 z-score |
| N=C(N)NS(=O)(=O)c1ccc(N)cc1 | 0.552 z-score |

Sample 2 — cell line: A-375; concentration: 100 µM; time: 36 h
| Compound | viability |
| --- | --- |
| CC1=C(C(=O)OC(C)C)C(c2cccc([N+](=O)[O-])c2)C(C(=O)OC2CN(C(c3ccccc3)c3ccccc3)C2)=C(N)N1 (stereo not shown) | 2.96% |
| NNC(=O)c1ccncc1 | 83.9% |
| Cc1cccc(CN2CCN(C(c3ccccc3)c3ccc(Cl)cc3)CC2)c1 (stereo not shown) | 58.4% |
| COc1cc(S(=O)(=O)O)ccc1O | 101% and 145% |
| CO/N=C(\C(=O)N[C@@H]1C(=O)N2C(C(=O)O)=C(CSc3nnnn3C)CS[C@H]12)c1csc(N)n1 | 103% |

Sample 3 — host: human; medium: microsomes or S9; concentration: 2 µM; time: 0.5 h
| SMILES | remaining compound [%] |
| --- | --- |
| O=C1CCc2cc3oc(-c4ccc(F)cc4)nc3cc21 | > 99 |
| Cc1oc(C)c(C(=O)OC(C)C(=O)N2CC(C)OC(C)C2)c1Br (stereo not shown) | 82.3 |
| CCCn1c(=O)c2ccc(C(=O)NC(C)C)cc2n2c(=O)n(Cc3ccc(C)cc3)nc12 | > 100 |
| COc1ccc(C(=O)N2CCn3c(nnc3[C@@H]3C[C@@H](O)CN3C(=O)C(C)C)C2)c(C)c1 | > 100 |

Sample 4 — organism: Sarcocystis neurona; effect on: parasite growth; concentration: 10 µM; notes: secondary screen
| Structure (SMILES) | inhibition [%] |
| --- | --- |
| CN(CCCN1c2ccccc2CCc2ccccc21)CC(=O)c1ccc(Cl)cc1 | 3.6 |
| O=C(c1ccc(F)cc1)C1CCN(CCn2c(=S)[nH]c3ccccc3c2=O)CC1 | 66.7 |
| C=CC[C@@H]1/C=C(\C)C[C@H](C)C[C@H](OC)[C@H]2O[C@@](O)(C(=O)C(=O)N3CCCC[C@H]3C(=O)O[C@H](/C(C)=C/[C@@H]3CC[C@@H](O)[C@H](OC)C3)[C@H](C)[C@@H](O)CC1=O)[C@H](C)C[C@@H]2OC | 10.3 |
| Nc1ccc(S(=O)(=O)c2ccc(N)cc2)cc1 | -23.7 |

Sample 5 — concentration: 1 µM
SMILES: CN1CCN(c2cnc3c(C4CCN(C(=O)c5ccc(OC(F)(F)F)cc5N)CC4)ncnc3c2)CC1
| target | test | remaining binding [%] |
| --- | --- | --- |
| CDK19 (Homo sapiens, UniProt Q9BWU1) | competition binding | 79 |
| Ribosomal protein S6 kinase alpha-6, C-terminal kinase domain (RPS6KA6, Homo sapiens, UniProt Q9UK32) | cell-free assay, competition with immobilised ligand | 100 |
| BMPR1B (Homo sapiens, UniProt O00238) | cell-free assay, competition with immobilised ligand | 100 |
| EPHA8 (Homo sapiens, UniProt P29322) | cell-free assay, competition with immobilised ligand | 100 |
| STK11 (Homo sapiens, UniProt Q15831) | cell-free assay, competition with immobilised ligand | 100 |
| HASPIN (Homo sapiens, UniProt Q8TF76) | cell-free assay, competition with immobilised ligand | 100 |
| Receptor-type tyrosine-protein kinase FLT3, autoinhibited (FLT3, Homo sapiens, UniProt P36888) | cell-free assay, competition with immobilised ligand | 100 |
| MAP3K6 (Homo sapiens, UniProt O95382) | cell-free assay, competition with immobilised ligand | 100 |
| WNK3 (Homo sapiens, UniProt Q9BYP7) | cell-free assay, competition with immobilised ligand | 100 |
| FLT3 (Homo sapiens, UniProt P36888, D835V/ITD) | cell-free assay, competition with immobilised ligand | 93 |
| EPHA7 (Homo sapiens, UniProt Q15375) | cell-free assay, competition with immobilised ligand | 100 |
| MAP3K19 (Homo sapiens, UniProt Q56UN5) | cell-free assay, competition with immobilised ligand | 83 |
| MAP2K1 (Homo sapiens, UniProt Q02750) | cell-free assay, competition with immobilised ligand | 95 |
| Ribosomal protein S6 kinase alpha-2, N-terminal kinase domain (RPS6KA2, Homo sapiens, UniProt Q15349) | cell-free assay, competition with immobilised ligand | 100 |
| Aurora kinase C (AURKC, Homo sapiens, UniProt Q9UQB9) | cell-free assay, competition with immobilised ligand | 67 |
| DYRK1B (Homo sapiens, UniProt Q9Y463) | cell-free assay, competition with immobilised ligand | 54 |
| MET (Homo sapiens, UniProt P08581, Y1235D) | cell-free assay, competition with immobilised ligand | 73 |
| NEK3 (Homo sapiens, UniProt P51956) | cell-free assay, competition with immobilised ligand | 97 |
| PIK3CA (Homo sapiens, UniProt P42336, Q546K) | cell-free assay, competition with immobilised ligand | 100 |

Sample 6 — effect on: binding; concentration: 1 µM
SMILES: Cc1ccc(NC(=O)c2ccnc(C(F)(F)F)c2)cc1-c1cc(OCCO)nc(N2CCOCC2)c1
| target | test | remaining binding [%] |
| --- | --- | --- |
| TAOK3 (Homo sapiens, UniProt Q9H2K8) | competition with immobilised ligand | 89 |
| PTK2B (Homo sapiens, UniProt Q14289) |  | 100 |
| SBK1 (Homo sapiens, UniProt Q52WX2) | competition with immobilised ligand | 68 |

Mixed results
| Structure (SMILES) | target | test | conditions | measurement | value |
| --- | --- | --- | --- | --- | --- |
| COc1cc2ncnc(Nc3ccc(F)c(Cl)c3)c2cc1OCCCN1CCOCC1 | Cyclin-dependent kinase 9, with cyclin K (CDK9, Homo sapiens, UniProt P50750) | cell-free assay | 0.5 µM | remaining signal | 99.3% |

Excerpt of the above (sample 5):
| target | test | remaining binding [%] |
| --- | --- | --- |
| EPHA8 (Homo sapiens, UniProt P29322) | cell-free assay, competition with immobilised ligand | 100 |
| FLT3 (Homo sapiens, UniProt P36888, D835V/ITD) | cell-free assay, competition with immobilised ligand | 93 |
| EPHA7 (Homo sapiens, UniProt Q15375) | cell-free assay, competition with immobilised ligand | 100 |
| Aurora kinase C (AURKC, Homo sapiens, UniProt Q9UQB9) | cell-free assay, competition with immobilised ligand | 67 |
